Values quoted from earlier work as cited in several papers.
Compare with care: the assays were run in different laboratories.

O=C(Nc1nc2cc(Cl)ccc2s1)c1cn(-c2ccccc2)nc1-c1ccc(F)cc1  IC50 (VEGFR-2; kinase activity, inhibitor): 0.096 µM
C=CCSc1nnc(-c2cc3ccccc3[nH]2)n1/N=C/c1c[nH]c2ccccc12  IC50 (VEGFR2; kinase activity, inhibitor): 0.0198 µM
Cc1ccc2nc(SCc3cn(-c4cccc(C(=O)O)c4)nn3)n(Cc3ccccc3)c(=O)c2c1  IC50 (VEGFR-2; inhibitor): 0.127 µM
O=C(Cn1cc(Cn2c(=O)c(Cc3ccccc3)nc3ccccc32)nn1)NNC(=S)Nc1ccccc1  IC50 (VEGFR-2; kinase activity, inhibitor): 0.037 µM
CN(C)c1ccc(C2CC(c3c(O)c4ccccc4oc3=O)=NN2c2nc(-c3ccccc3)c(/N=N/c3ccc(Cl)cc3)s2)cc1 (stereo not drawn)  IC50 (VEGFR2; inhibitor): 0.034 µM
O=C(Cn1cc(Cn2c(=O)c(Cc3ccccc3)nc3ccccc32)nn1)N/N=C/c1cccnc1  IC50 (VEGFR-2; kinase activity, inhibitor): 1.09 µM
Cc1ccc(Nc2cc(Oc3ccc4[nH]ccc4c3)ncn2)cc1S(N)(=O)=O  IC50 (VEGFR-2; inhibitor): 0.045 µM
COc1ccccc1/C=C1\SC(=O)N(CC(=O)Nc2ccc(C(=O)Nc3ccc(Cl)cc3)cc2)C1=O  IC50 (VEGFR-2): 0.081 µM
COc1cc2ncnc(Sc3nnc(C)s3)c2cc1OC  IC50 (VEGFR-2; kinase activity, inhibitor): 0.032 µM

Excerpt of the above:
Cc1ccc2nc(SCc3cn(-c4cccc(C(=O)O)c4)nn3)n(Cc3ccccc3)c(=O)c2c1  IC50 (VEGFR-2; inhibitor): 0.127 µM
